Published values gathered from unrelated publications.
Protocols differ between the studies behind these lines. “And” joins repeats or separate records; there may be more than shown. ± gives the spread as reported.
Oprd1: Delta-type opioid receptor (Oprd1, Rattus norvegicus, UniProt P33533)
Chain of UniProt P33533 (whole entry, looked up): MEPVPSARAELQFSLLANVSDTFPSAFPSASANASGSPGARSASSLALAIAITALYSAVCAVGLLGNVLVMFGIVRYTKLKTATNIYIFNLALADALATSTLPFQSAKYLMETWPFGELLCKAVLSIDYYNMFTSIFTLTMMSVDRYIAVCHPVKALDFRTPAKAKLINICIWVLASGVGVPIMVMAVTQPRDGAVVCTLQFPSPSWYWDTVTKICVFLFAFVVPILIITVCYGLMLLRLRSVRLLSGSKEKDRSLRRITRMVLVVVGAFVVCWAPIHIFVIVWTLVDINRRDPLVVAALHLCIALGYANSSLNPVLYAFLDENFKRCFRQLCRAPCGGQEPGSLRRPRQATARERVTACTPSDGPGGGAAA
Chain of UniProt Q9UH17 (whole entry, looked up): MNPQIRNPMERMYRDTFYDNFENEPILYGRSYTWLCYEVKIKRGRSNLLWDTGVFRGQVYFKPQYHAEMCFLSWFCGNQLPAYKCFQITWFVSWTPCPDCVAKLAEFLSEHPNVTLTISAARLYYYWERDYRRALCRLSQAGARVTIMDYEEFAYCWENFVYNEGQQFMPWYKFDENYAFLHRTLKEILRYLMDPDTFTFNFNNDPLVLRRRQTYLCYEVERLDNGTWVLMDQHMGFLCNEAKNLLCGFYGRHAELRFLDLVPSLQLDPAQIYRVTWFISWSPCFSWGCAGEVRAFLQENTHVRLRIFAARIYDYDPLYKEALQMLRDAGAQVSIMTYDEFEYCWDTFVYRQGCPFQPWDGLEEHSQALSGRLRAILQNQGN
Chain of UniProt Q9Y2J8 (whole entry, looked up): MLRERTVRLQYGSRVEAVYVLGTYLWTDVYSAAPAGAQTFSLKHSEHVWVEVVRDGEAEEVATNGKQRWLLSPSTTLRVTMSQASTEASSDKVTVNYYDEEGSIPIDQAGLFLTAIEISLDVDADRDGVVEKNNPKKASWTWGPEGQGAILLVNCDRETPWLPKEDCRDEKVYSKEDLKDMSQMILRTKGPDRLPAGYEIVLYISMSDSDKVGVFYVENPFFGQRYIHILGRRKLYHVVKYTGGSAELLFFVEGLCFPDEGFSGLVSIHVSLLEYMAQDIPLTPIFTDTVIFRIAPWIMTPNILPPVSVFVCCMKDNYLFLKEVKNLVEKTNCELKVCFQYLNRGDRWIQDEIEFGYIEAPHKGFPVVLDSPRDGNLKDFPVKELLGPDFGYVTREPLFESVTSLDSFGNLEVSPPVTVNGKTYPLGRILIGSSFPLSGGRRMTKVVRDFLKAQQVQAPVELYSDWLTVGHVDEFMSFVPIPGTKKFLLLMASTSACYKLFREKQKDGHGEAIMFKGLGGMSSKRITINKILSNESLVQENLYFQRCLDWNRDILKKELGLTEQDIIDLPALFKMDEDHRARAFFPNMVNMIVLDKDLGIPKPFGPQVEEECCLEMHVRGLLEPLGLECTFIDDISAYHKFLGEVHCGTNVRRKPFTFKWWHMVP
Chain of UniProt P42338 (whole entry, unmodified, looked up): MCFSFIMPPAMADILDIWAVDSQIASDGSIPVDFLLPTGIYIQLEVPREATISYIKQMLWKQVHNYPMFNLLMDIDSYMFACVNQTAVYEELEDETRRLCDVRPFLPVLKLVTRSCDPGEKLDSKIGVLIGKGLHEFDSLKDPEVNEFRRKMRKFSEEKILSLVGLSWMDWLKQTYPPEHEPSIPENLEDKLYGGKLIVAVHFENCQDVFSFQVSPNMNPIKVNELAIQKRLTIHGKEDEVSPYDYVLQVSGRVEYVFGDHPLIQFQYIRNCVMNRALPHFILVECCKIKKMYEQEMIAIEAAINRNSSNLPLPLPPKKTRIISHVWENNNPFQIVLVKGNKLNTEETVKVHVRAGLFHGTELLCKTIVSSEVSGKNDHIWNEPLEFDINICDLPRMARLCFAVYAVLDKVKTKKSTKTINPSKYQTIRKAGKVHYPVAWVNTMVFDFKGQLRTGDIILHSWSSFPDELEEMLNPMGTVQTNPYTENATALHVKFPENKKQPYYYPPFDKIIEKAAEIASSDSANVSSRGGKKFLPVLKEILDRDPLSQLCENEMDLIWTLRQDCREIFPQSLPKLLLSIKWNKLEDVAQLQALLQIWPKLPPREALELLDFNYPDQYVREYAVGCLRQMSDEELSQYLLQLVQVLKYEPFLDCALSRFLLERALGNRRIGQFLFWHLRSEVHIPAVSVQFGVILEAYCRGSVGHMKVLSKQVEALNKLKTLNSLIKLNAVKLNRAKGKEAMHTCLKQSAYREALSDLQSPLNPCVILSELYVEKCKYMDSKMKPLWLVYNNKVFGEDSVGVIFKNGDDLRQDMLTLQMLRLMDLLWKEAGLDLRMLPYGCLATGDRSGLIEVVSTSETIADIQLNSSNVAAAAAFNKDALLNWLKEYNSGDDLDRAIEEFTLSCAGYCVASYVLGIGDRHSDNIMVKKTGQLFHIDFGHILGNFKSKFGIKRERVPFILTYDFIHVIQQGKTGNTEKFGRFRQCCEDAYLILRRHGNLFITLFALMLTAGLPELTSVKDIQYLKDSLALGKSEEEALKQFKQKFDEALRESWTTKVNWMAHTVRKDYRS
Chain of UniProt Q16531 (whole entry, looked up): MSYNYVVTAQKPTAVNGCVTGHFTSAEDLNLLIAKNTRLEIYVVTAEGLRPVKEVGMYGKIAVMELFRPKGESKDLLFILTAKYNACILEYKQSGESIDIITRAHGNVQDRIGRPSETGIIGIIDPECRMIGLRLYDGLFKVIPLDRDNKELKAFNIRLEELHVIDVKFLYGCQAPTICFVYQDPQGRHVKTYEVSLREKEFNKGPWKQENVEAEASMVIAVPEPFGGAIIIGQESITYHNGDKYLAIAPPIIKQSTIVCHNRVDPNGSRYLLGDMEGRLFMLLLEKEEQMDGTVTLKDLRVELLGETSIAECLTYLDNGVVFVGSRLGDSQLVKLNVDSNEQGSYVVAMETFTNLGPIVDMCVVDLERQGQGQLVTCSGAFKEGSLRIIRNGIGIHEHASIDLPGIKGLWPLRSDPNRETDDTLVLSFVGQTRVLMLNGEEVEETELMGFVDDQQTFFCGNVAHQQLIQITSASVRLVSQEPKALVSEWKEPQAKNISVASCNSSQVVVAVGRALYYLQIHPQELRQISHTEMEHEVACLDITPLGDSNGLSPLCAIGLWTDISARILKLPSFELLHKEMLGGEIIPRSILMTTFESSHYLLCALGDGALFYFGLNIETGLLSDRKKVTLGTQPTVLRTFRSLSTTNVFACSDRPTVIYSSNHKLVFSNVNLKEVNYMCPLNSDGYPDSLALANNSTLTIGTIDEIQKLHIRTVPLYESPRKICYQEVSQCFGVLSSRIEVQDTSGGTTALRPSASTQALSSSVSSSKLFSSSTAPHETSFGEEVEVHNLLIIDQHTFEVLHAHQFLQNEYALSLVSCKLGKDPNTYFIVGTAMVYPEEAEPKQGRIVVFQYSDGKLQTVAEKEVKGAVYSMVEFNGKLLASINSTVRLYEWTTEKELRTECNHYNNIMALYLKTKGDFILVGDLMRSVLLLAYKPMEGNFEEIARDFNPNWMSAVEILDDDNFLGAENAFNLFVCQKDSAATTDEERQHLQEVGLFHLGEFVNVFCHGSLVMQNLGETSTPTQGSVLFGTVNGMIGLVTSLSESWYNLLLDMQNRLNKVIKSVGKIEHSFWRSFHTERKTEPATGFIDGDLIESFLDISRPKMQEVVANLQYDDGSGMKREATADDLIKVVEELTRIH

CCCC[C@H]1CNCCN1C[C@@H]1CCCN1C[C@H](CC1CCCCC1)N1CCN(CCCC2CCCC2)[C@H]([C@H](C)CC)C1 gave a remaining binding of 83.5% (Oprd1; radioligand binding; rat brain membranes; 500 nM, pH 7.5, 25 °C, added: 2 nM [3H]DPDPE).
C#CCCCCOc1ccc2c(c1)CCCN2C(=O)CCl gave a reactivity ratio of 1.62 (DDB1 (Homo sapiens, UniProt Q16531); mass spectrometry profiling; H460 cell lysate; 100 µM over 10 µM, UniProt Q16531; relative to: high over low concentration).
CCN(N=Cc1cnc2ccc(Br)cn12)S(=O)(=O)c1cc([N+](=O)[O-])ccc1C: “IC50 fold change” 2 (PIK3CB (Homo sapiens, UniProt P42338, Y778I); relative to: mutant over wild-type p110β).
For CN(C)CCCSC(=S)N1CCN(C(=O)/C=C/c2coc3ccccc3c2=O)CC1, the MST response was 837 a.u. (Nucleoprotein (N, Tomato spotted wilt virus, UniProt P25999, Y184A); binding, microscale thermophoresis; 0.4883 µM; dose series).
COc1c(N2CC3CCCNC3C2)c(F)cc2c(=O)c(C(=O)OCc3ccc([N+](=O)[O-])s3)cn(C3CC3)c12 (centres unmarked) gave an initial rate of 0.77 ± 0.016 µM/min (nfsB (Escherichia coli K-12, UniProt P38489); substrate; added: NADH 100 µM).
CC(C)[C@H]1NC(=O)C[C@H]2/C=C/CCSSC[C@@H](NC1=O)C(=O)N[C@H](Cc1cccc3ccccc13)C(=O)NCC(=O)O2 gave an inhibition of 5.2% (IKBKE (Homo sapiens, UniProt Q14164); enzyme activity, inhibitor; 10 µM).
CCCc1cc2cc(-n3nc(CCC)c4c3CC(C)(C)CC4=O)cc(N3CCC(O)CC3)c2c(=O)[nH]1 has a selectivity ratio of > 60 fold (HSP90AB1 (Homo sapiens, UniProt P08238); fluorescence polarization; relative to: apparent KD Hsp90α over apparent KD HSP90AB1).
The adducted protein of C=CC(=O)Nc1cc(-c2ccc(C(=O)N3CCCC(O)(CC)C3)cc2)ccc1F (centres unmarked) is reported as 0% (DNA dC->dU-editing enzyme APOBEC-3B, C-terminal domain (Homo sapiens, UniProt Q9UH17); covalent adduct, intact protein MS; 5 h, 1-fold, 25 µM).
CCNC(=S)NN=Cc1c2ccccc2cc2ccccc12.Cc1ccc(C(C)C)cc1.[Cl-].[Cl-].[Ru+2] has a ΔG° of -7.22 kcal/mol (Albumin (ALB, Homo sapiens, UniProt P02768); binding, fluorescence titration; human serum albumin; 308 K).
The ΔG of C=CC(=O)NC[C@H](NC(=O)[C@H](CC1CCCCC1)NC(=O)[C@H](CCC(N)=O)NC(C)=O)C(=O)N[C@@H](CC(C)C)C(=O)N[C@@H](Cc1ccccc1)C(=O)O is reported as -9.2 kcal/mol (Beta sliding clamp (Escherichia coli, UniProt P0A988); binding, isothermal titration calorimetry; 25 °C).
CN(C)[C@H]1C[C@@]23CC[C@@]4(O2)C(=CC[C@]2(C)[C@@H](c5ccc6ccncc6c5)CC[C@H]24)C=C3[C@@H](O)[C@@H]1O gave an inhibition of 3.2% (STK38L (Homo sapiens, UniProt Q9Y2H1); ATP probe labelling, inhibitor, KiNativ profiling; 0.1 µM).
With O=C1NC(=O)c2c1c1cc(F)c[n+]3c1c1c2c2cc(O)ccc2[n]1[Ru-4]312([N]=C=S)[S+]3CC[S+]1CC[S+]2CC3 (centres unmarked) the remaining activity was 86% (LIM domain kinase 1 (LIMK1, Homo sapiens, UniProt P53667); enzyme activity; 100 nM, human enzyme, added: 10 µM ATP; relative to: untreated).
Under “SILAC activity ratio”, O=C(N1CCCCC1)n1ccnn1 is recorded as 1.06 (Palmitoyl-protein thioesterase ABHD10, mitochondrial (Mus musculus, UniProt Q6PE15); probe labelling, inhibitor, competitive ABPP-SILAC, item: Abhd10; mouse T cells; concentration not given, 4 h, protein level; relative to: treated over DMSO cells, lower = stronger inhibition).
CCO[C@H]1[C@H](O)[C@@H](N)[C@@H](O[C@H]2[C@H](O[C@@H]3O[C@H](CO)[C@@H](O[C@H]4O[C@@H](CN)[C@@H](O)[C@H](O)[C@H]4N)[C@H]3O)[C@@H](O)[C@H](N)C[C@@H]2N)O[C@@H]1CO has a remaining signal of 35% (LCK (Homo sapiens, UniProt P06239); cell-free assay; 10 µM).
[CH3][Ti+2][O]C(=O)c1ccc([S][Au][PH](c2ccccc2)(c2ccccc2)c2ccccc2)cc1.c1cc[cH-]c1.c1cc[cH-]c1 has a remaining activity of 96.3% and 101% (PRKCA (Homo sapiens, UniProt P17252); kinase activity; 1 µM, added: ATP 10 µM).
CCOC(=O)[C@@H]1Cc2c(cc([N+](=O)[O-])cc2[N+](=O)[O-])[C@H](O)[C@]12C(=O)Nc1ccc(Br)cc12 has a remaining binding of 78% (WEE1 (Homo sapiens, UniProt P30291); binding, competition with immobilised ligand; 0.1 µM).
C=C(c1ccccc1)[C@@H](N)P(=O)(O)O: “reaction rate reduction” 10% (Phenylalanine/tyrosine ammonia-lyase (PAL, Rhodotorula toruloides, UniProt P11544); inhibitor; 50 µM, added: L-Phe 5 mM).
With CC(=O)NCC(=O)N[C@@H](CO)C(=O)N[C@@H](CS)C(=O)N[C@@H](CCCNC(=N)N)C(=O)N[C@@H](CCCCN)C(=O)N[C@@H](CCCNC(=N)N)C(=O)N[C@@H](CC(N)=O)C(=O)N[C@@H](CCCNC(=N)N)C(=O)N[C@@H](CO)C(=O)N1CCC[C@H]1C(=O)N[C@@H](CCC(=O)O)C(=O)N[C@@H](CCCNC(=N)N)C(N)=O the ΔH was -4.97 kcal/mol (WDR5 (Homo sapiens, UniProt P61964); binding, competitor of LANA peptide, ITC; pH 7.0, 20 °C, WIN motif peptide).
CS(C)(=O)=Nc1ccc(-c2ccc(-c3nc4cc(O[C@@H]5CO[C@H]6[C@@H]5OC[C@H]6O)[nH]c4cc3F)cc2)cc1 has an inhibition of -24% (SYK (Homo sapiens, UniProt P43405); enzyme activity, inhibitor; 10 µM).
The Hill slope of CC(C)C[C@H](NC(=O)[C@H]1O[C@@H]1C(=O)O)C(=O)NCCCCN=C(N)N is reported as -1.64 (CAPN1 (Homo sapiens, UniProt P07384)).
The Emax of CC[C@H](C)[C@H](NC(=O)[C@H](CCCNC(=N)N)NC(=O)[C@H](CCCNC(=N)N)NC(=O)[C@H](CC(C)C)NC(=O)[C@H](Cc1ccccc1)NC(=O)CNC(=O)CNC(=O)[C@@H](N)Cc1ccc(O)cc1)C(=O)N[C@@H](CCCNC(=N)N)C(=O)N1CCC[C@H]1C(=O)N[C@@H](CCCCN)C(=O)N[C@@H](CC(C)C)C(=O)N[C@@H](CCCCN)C(=O)O is reported as 65.8% (GPR139 (Homo sapiens, UniProt Q6DWJ6); Gαi3 activation, agonist, BRET; HEK293T/17; 40 µM).
N[C@H](C(=O)N1CCCC1)C1CCN(c2nccc3c(-c4ncc(Cl)cc4Cl)cccc23)CC1 has a kcat of 0.967 s⁻¹ and 0.985 s⁻¹ (PADI2 (Homo sapiens, UniProt Q9Y2J8); enzyme activity; 0.01573 µM, added: Ca2+ 0.25 mM).
O=C(CF)N[C@H]1[C@H]([C@H](O)[C@H](O)CNC(=O)c2ccc(-c3ccccc3)cc2)O[C@@](OCc2cccc(Cl)c2Cl)(C(=O)O)C[C@@H]1O has a ΔH of -11.7 ± 0.18 kcal/mol (CD22 (Homo sapiens, UniProt P20273); isothermal titration calorimetry).
With CC(C)CC(O)(CC(C)C)c1cn(C(=O)N2CCCC2)nn1 the activity ratio-of-ratios was 1.5 (Acyl-coenzyme A thioesterase 2, mitochondrial (Acot2, Mus musculus, UniProt Q9QYR9); probe labelling, inhibitor, item: Acot2; mouse, brain; i.p., 0.8 mg/kg, 4 h, protein level; relative to: treated over vehicle mice, lower = stronger inhibition).
OC[C@H]1CNCCN1C[C@@H]1CCCN1C[C@@H](Cc1ccc2ccccc2c1)N1CCN(CCCC2CCCC2)[C@H](Cc2ccc(O)cc2)C1 has a remaining binding of 92% (Oprd1; radioligand binding; rat brain membranes; 500 nM, pH 7.5, 25 °C, added: 2 nM [3H]DPDPE).
Cc1ccc(N2CC3CCC(C2)N3C)cc1C(=O)N[C@H](C)c1cc(-c2cnn(C)c2)nc2ccccc12 has a remaining activity of 102% (USP15 (Homo sapiens, UniProt Q9Y4E8); enzyme activity; 30 µM, 0.5 h).
CC[C@@H](C)[C@@H]1CN([C@H](Cc2ccc3ccccc3c2)CN2CCC[C@H]2CN2CCNC[C@@H]2CO)CCN1CCC12CC3CC(CC(C3)C1)C2 gave a remaining binding of 102% (Oprd1; radioligand binding; rat brain membranes; 500 nM, pH 7.5, 25 °C, added: 2 nM [3H]DPDPE).
N[C@@H](Cc1ccccc1)P(=O)(O)O has a -TΔS of 1.5 kcal/mol (PAL1 (Petroselinum crispum, UniProt P24481, Y110F); binding, ITC).
CCn1nc(Cl)c2c1-c1cnc(N)c(c1)O[C@H](C)c1cc(F)ccc1-c1nn(C)cc1C2 has a selectivity ratio of 315 fold (FRK (Homo sapiens, UniProt P42685); kinase activity, inhibitor; relative to: IC50 FRK over IC50 ALK).

Some of these lines once more:
[CH3][Ti+2][O]C(=O)c1ccc([S][Au][PH](c2ccccc2)(c2ccccc2)c2ccccc2)cc1.c1cc[cH-]c1.c1cc[cH-]c1 has a remaining activity of 96.3% and 101% (PRKCA (Homo sapiens, UniProt P17252); kinase activity; 1 µM, added: ATP 10 µM).
CCCC[C@H]1CNCCN1C[C@@H]1CCCN1C[C@H](CC1CCCCC1)N1CCN(CCCC2CCCC2)[C@H]([C@H](C)CC)C1 gave a remaining binding of 83.5% (Oprd1; radioligand binding; rat brain membranes; 500 nM, pH 7.5, 25 °C, added: 2 nM [3H]DPDPE).
C#CCCCCOc1ccc2c(c1)CCCN2C(=O)CCl gave a reactivity ratio of 1.62 (DDB1 (Homo sapiens, UniProt Q16531); mass spectrometry profiling; H460 cell lysate; 100 µM over 10 µM, UniProt Q16531; relative to: high over low concentration).
